Assay results pooled from the literature.
Compare with care: the assays were run in different laboratories. Values joined by “and” are separate records of one study, mostly repeats; a detail may differ. ± marks the error that the study gave.

SMILES | cell line | assay | setting | scale | endpoint | value
CN1C(=O)C(C2C3=C(CC(C)(C)CC3=O)Oc3c(O)cccc32)C(=O)N(C)C1=O (centres unmarked) | 3T3-L1 adipocytes | qPCR, refers to: IRS-1 | IC20, 14 days | baseline: untreated mature adipocytes | mRNA level | increased
CCCCCc1cc(O)c2c(c1)OC(C)(C)[C@@H]1CCC(C)=C[C@@H]21 | human sperm | modified Kremer test | 10 µM, 1% methylcellulose, 1 cm | baseline: vehicle | sperm penetration | 0.38 ± 0.33 fold
COc1ccc(-n2nc(C(C)=O)s/c2=N\N=C(/C)c2ccc(NC(C)=O)cc2)cc1 | MCF7 | – | 2.5 µM | – | toxicity | 93% and 65.4%
C[C@]12CCC(=O)C=C1CC[C@@H]1[C@@H]2CC[C@@]2(C)[C@H]1CC[C@]2(C)O | primary rat hippocampal/cortical neuron-glia cultures | – | 1 µM, added: 1 µM α-synuclein oligomers | – | reversal of trafficking deficit | -14.7%
O=C1NC(=O)C(C2C3=C(CCCC3=O)Oc3ccc([N+](=O)[O-])cc32)C(=O)N1 (centres unmarked) | 3T3-L1 adipocytes | qPCR, refers to: adiponectin | IC20, 14 days | baseline: untreated mature adipocytes | mRNA level | increased
COc1ccc(CCN)cc1OC | primary rat hippocampal/cortical neuron-glia cultures | – | 1 µM, added: 1 µM α-synuclein oligomers | – | reversal of trafficking deficit | -11.4%
CN(C)CCCN1c2ccccc2Sc2ccc(Cl)cc21 | del45 myoblasts | fluorescence, refers to: fluorescent transferrin | concentration not given, 2 h | – | transferrin uptake | 92.2% and 89.5% and 83.7%
CC[C@@H](c1cccc(O)c1)[C@@H](C)CN(C)C | AtT20 cells | somatostatin response, membrane potential dye fluorescence | 30 µM, 0.08333 h, added: somatostatin 100 nM | – | membrane potential change | 24.2% and 24.5% and 23.9% and 24.9% and 25.1% and 18.6%

Some of these lines once more:
SMILES | cell line | assay | setting | scale | endpoint | value
COc1ccc(-n2nc(C(C)=O)s/c2=N\N=C(/C)c2ccc(NC(C)=O)cc2)cc1 | MCF7 | – | 2.5 µM | – | toxicity | 93% and 65.4%
